Assay results collected from several papers.
Parts stem from different laboratories: compare values within a part only.

Block 1
Target: Sal-like protein 4, full length isoform A (SALL4, Homo sapiens, UniProt Q9UJQ4, residues 1-1053)
Sequence of UniProt Q9UJQ4 (whole entry, looked up): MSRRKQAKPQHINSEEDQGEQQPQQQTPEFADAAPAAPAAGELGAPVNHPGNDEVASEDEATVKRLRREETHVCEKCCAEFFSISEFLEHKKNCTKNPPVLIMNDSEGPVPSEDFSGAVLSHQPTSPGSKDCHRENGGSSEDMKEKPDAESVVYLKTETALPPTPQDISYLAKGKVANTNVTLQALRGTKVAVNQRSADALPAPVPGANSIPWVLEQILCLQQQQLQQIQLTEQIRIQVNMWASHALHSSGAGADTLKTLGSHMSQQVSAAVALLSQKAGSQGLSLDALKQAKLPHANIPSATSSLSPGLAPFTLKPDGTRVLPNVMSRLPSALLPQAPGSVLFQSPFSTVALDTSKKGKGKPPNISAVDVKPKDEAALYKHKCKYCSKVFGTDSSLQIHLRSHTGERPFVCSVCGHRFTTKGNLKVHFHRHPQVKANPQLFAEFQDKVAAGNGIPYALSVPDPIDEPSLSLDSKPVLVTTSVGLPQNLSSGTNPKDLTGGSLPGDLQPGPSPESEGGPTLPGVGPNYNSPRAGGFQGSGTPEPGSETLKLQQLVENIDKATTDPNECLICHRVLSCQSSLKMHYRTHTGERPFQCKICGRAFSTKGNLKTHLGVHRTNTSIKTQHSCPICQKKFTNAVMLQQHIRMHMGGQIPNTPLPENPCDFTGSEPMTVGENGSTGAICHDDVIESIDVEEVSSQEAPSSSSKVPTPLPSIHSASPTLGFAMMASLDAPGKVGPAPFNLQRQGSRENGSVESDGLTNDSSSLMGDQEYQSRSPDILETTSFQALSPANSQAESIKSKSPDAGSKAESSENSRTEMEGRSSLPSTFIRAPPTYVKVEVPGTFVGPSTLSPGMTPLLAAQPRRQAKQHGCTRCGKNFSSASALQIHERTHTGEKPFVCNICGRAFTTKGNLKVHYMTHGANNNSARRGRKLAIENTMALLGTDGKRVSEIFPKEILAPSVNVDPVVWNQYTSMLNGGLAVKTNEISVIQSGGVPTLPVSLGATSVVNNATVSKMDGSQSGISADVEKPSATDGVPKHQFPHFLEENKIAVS
Method: universal PBM
Form: double-stranded DNA, one strand shown
Sample: in vitro
Concentration: 600 nM
Setting: 8-mer, flanks averaged, mean of replicates
Reading: higher = stronger binding
| Oligonucleotide | E-score |
| --- | --- |
| AAAGGAGG | -0.0577 |
| ATACTTAC | 0.248 |
| CTTCAGGC | -0.2 |
| ACCGGATG | -0.192 |
| ACGGAACT | -0.0535 |

Block 2
Target: PABPC1L2, full length, GST fusion (mouse, UniProt A0ABA7IW68)
Method: RNAcompete
Form: RNA
Sample: in vitro
Concentration: 20 nM
Setting: 7-mer, probes averaged, single round
Reference: mean of 7-mers
Reading: higher = stronger binding
Residues (chain): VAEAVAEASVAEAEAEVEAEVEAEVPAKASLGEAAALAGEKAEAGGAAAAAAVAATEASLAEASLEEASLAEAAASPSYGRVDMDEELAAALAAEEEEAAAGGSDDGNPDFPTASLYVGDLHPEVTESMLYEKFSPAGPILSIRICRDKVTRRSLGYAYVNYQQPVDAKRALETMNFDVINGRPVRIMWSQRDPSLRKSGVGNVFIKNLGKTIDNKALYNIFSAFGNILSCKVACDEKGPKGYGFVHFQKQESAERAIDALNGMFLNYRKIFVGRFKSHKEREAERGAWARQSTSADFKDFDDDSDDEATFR
| Oligonucleotide | 7-mer Z-score |
| --- | --- |
| CGUUUAU | -0.364 |
| UGGUCGA | -0.00833 |
| ACUCAGC | -0.121 |
| UCCCCUC | -0.38 |
| CCAAAAG | 1.19 |
| CACAUUU | -0.104 |

Block 3
Target: Interferon regulatory factor 7, full length, phosphomimetic (IRF7, Homo sapiens, UniProt Q92985, residues 1-503, S471D/S472D/S475D/S476D/S477D/S483D/S484D/S487D)
Method: protein-binding microarray
Form: double-stranded DNA, one strand shown
Sample: in vitro
Concentration: 2200 nM top
Setting: 60-bp whole probe
Together with: salmon DNA 0.4 mg/ml
Reference: random background probes
Reading: higher = stronger binding
Constant ends, left off below: GCCTAGCAC … GTCTTGATTCGCTTGACGCTGCTG
Residues (chain): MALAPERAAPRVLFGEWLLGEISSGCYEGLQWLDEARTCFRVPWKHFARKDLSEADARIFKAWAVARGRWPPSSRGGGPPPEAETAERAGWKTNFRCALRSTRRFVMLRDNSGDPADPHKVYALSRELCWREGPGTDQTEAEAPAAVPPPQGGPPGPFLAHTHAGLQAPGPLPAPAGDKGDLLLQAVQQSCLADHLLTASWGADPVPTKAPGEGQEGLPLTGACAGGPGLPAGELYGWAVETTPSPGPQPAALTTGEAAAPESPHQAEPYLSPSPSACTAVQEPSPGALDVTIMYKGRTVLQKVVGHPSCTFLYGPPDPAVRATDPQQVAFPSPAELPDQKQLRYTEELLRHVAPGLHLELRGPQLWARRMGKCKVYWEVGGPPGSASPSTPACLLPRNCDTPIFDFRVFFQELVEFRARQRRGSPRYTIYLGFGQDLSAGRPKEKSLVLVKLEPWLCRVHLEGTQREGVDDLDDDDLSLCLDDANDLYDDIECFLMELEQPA
| Oligonucleotide | fitted relative affinity [z-score] |
| --- | --- |
| TCACTTCTGCCTGTCCAACTGTGCTAG | 2.13 |
| TTAAAACTGGGGTATCGATTAGTGCTA | -0.0161 |
| TCATATTTATTTTTACAACTGTGCTAG | 0.928 |
| TCATACATGTGTTTAAAACTGTGCTAG | 0.499 |
| CACTCTTTCCTCACCATACTGTGCTAG | 2.74 |

Further values, each from its own experiment
| Substance | target | assay | test system | setting | how to read | endpoint | result |
| --- | --- | --- | --- | --- | --- | --- | --- |
| PhoQ, residues 284 288 289 292 302 303 SASVAL | PhoP, residues 12 14 15 18 19 HLGGL (Escherichia coli, UniProt P23836) | Sort-seq, measured: YFP reporter | E. coli | PhoQ-PhoP variant library, together with: 10 µM Mg2+ | reference: high Mg2+ state, higher = stronger signaling | fold induction | 0.777 |

A few entries again (block 1):
| Oligonucleotide | E-score |
| --- | --- |
| ACCGGATG | -0.192 |
| CTTCAGGC | -0.2 |
